Experimental data of several laboratories.
Each numbered part is a random draw from the data of one study; scales do not carry over between parts. Several values in a cell are separate wells, animals, samples, runs or records.
UniProt P9WI81, sequence (whole entry, looked up): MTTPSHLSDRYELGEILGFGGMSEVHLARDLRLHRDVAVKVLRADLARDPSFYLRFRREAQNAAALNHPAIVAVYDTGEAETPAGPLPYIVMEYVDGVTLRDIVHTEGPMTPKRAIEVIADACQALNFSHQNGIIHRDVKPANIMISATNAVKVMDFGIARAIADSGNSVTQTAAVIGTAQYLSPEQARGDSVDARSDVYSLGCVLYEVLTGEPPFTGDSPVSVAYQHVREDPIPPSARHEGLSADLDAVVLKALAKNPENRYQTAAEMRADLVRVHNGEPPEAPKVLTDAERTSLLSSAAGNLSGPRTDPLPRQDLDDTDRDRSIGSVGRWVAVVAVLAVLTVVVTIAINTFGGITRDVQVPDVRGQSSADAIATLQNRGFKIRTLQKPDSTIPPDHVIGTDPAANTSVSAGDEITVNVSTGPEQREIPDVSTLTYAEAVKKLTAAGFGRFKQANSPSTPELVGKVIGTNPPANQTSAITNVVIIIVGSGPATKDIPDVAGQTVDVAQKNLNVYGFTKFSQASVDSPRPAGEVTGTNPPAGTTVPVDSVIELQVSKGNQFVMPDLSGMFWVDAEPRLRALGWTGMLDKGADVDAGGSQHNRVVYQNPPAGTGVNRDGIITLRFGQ

Study 1
Target: Calcium/calmodulin-dependent protein kinase type II subunit alpha (CAMK2A, Homo sapiens, UniProt Q9UQM7)
UniProt Q9UQM7, sequence (whole entry, looked up): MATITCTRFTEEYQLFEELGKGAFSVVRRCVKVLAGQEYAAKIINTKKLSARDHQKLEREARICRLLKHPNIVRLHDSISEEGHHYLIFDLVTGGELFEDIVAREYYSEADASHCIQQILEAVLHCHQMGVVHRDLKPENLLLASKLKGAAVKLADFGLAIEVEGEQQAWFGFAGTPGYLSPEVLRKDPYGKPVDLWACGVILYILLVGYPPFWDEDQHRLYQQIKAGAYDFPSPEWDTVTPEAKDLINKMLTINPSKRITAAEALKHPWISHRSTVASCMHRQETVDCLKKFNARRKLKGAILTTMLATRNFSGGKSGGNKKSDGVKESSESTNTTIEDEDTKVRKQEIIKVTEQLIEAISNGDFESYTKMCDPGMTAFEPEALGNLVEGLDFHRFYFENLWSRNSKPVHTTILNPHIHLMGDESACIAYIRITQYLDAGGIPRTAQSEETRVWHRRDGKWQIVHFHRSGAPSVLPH
Observed: enzyme activity
Mode: inhibitor
Concentration: 10 µM
SMILES	inhibition [%]
CC(C)c1cccc(=O)c(O)c1	3
C[C@H]1[C@H](NC(=O)/C(=N\OC(C)(C)C(=O)O)c2csc(N)n2)C(=O)N1S(=O)(=O)O	-6
C[C@@H]1[C@H]2[C@H](O[C@@H]3O[C@H](CO)[C@@H](O)[C@H](O)[C@H]3O)OC=C(C(=O)O)[C@H]2C[C@@H]1O	-13
O=C(O)[C@@H]1C[C@@H](O)CN1	4
CN(C)c1cc(NC(=O)CNC(C)(C)C)c(O)c2c1C[C@H]1C[C@H]3[C@H](N(C)C)C(O)=C(C(N)=O)C(=O)[C@@]3(O)C(O)=C1C2=O	-9
CC(C)c1ccc2c(c1)CC[C@H]1[C@](C)(C(=O)O)CCC[C@]21C	1
O=c1cc(-c2ccc(O)cc2)oc2c([C@@H]3O[C@H](CO)[C@@H](O)[C@H](O)[C@H]3O)c(O)c([C@@H]3O[C@H](CO)[C@@H](O)[C@H](O)[C@H]3O)c(O)c12	-19
O=C(O)[C@@H]1CCCN1	2

Study 2
Cell line: HaCaT
Concentration: 100 µM
Time: 60 h
SMILES	viability
O=C(O)c1cccc(-c2noc(-c3ccccc3F)n2)c1	114%
O=c1c(O[C@@H]2O[C@H](CO)[C@H](O)[C@H](O)[C@H]2O)c(-c2ccc(O)c(O)c2)oc2cc(O)cc(O)c12	162%
COc1ccccc1OCC(O)CN1CCN(CC(=O)Nc2c(C)cccc2C)CC1 (stereo not drawn)	118%
CC(C)c1ccc2oc3nc(N)c(C(=O)O)cc3c(=O)c2c1	126%
CCc1c(C)[nH]c2c1C(=O)C(CN1CCOCC1)CC2 (stereo not drawn)	140%
O=C(O)[C@@H]1CSCN1	131%
O=C(CO)[C@@H](O)[C@H](O)[C@H](O)CO	143%

Study 3
Structure (SMILES): CC(C)(C(=O)O)[C@H](NC(=O)Cc1cccc(I)c1)c1ccc2oc(=O)[nH]c2c1
Cell line: HEK293T
Observed: protein-protein interaction
Technique: NanoBiT
Time: 4 h
Setting: LgBiT-linker-SmBiT control pair
Direction: higher = more interaction
concentration	luminescence signal
30 nM	127 a.u. and 120 a.u. and 133 a.u.
0.12 nM	100 a.u. and 114 a.u. and 111 a.u.
0.37 nM	103 a.u. and 111 a.u. and 118 a.u.
1.11 nM	110 a.u. and 120 a.u. and 106 a.u.

Further values, each from its own experiment
SMILES	target or system	observed	technique	concentration	quantity	value
NC(=O)c1cccc(-c2cc(Nc3ccc(OC(F)(F)F)cc3)ncn2)c1	BCR-ABL-expressing Ba/F3	cell proliferation			GI50	520 nM
CCCOc1ccc([C@@H]2[C@@H](C(=O)O)[C@H](c3ccc4c(c3)OCO4)CN2CC(=O)Nc2c(CC)cccc2CC)cc1	pknB (Mycobacterium tuberculosis, UniProt P9WI81)	cell-free assay	competition with immobilised ligand	1 µM	remaining binding	98%

Repeated from above (study 1):
SMILES	inhibition [%]
O=C(O)[C@@H]1C[C@@H](O)CN1	4
C[C@@H]1[C@H]2[C@H](O[C@@H]3O[C@H](CO)[C@@H](O)[C@H](O)[C@H]3O)OC=C(C(=O)O)[C@H]2C[C@@H]1O	-13
